Earlier results as cited in several papers.
Each line is one published result; not all experiments were run side by side. ± marks the error that the study gave. Converted amounts (≈) assume the structure as drawn.
Sequence of UniProt P08684 (whole entry, looked up): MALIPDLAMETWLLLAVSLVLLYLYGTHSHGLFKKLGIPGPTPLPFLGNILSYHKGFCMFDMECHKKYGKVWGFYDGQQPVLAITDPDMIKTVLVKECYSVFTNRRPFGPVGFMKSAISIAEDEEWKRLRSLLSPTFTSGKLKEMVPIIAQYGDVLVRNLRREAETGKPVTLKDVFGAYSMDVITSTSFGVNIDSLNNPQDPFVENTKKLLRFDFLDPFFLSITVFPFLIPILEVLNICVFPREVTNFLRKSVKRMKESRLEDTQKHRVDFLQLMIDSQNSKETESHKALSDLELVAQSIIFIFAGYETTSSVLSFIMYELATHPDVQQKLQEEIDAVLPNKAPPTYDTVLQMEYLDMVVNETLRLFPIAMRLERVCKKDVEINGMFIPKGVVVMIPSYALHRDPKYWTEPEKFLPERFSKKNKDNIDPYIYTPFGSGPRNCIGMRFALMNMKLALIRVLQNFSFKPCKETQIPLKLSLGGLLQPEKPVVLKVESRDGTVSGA

Molecule | target or system | test | test system | setting | measurement | result
CO[C@@H](C)Cn1c(=O)n(C)c2cnc3ccc(-c4cncc(C(C)(C)O)c4)cc3c21 | – | – | human cancer patients, CRPC | with: enzalutamide | maximum tolerated dose | 200 mg twice daily
CC(C)[C@@H](CN1CC[C@@](C)(c2cccc(O)c2)[C@@H](C)C1)NC(=O)[C@@]1(C)Cc2ccc(O)cc2CN1 | delta opioid receptor (human) | antagonist | – | with: DPDPE | Ke | 854 ± 210 nM
VDFLEENI | Mamu-B*01 macaque | peptide-MHC binding | peptide | – | IC50 | 19.2 nM
c1cc([C@H]2CC[C@]3(CC2)OO[C@]2(O3)C3CC4CC(C3)CC2C4)ccc1OCCN1CCOCC1 | – | – | FaSSIF | pH 6.5 | thermodynamic solubility | 40.6 µg/mL (≈ 86.5 µM)
Oc1ccc(-c2ccc(Cl)cc2)cc1 | – | – | rat liver | 1 µM | glucuronidation rate | 36 pmol/min/mg protein
CNCCN1C(=O)[C@H](OC(C)=O)[C@H](c2ccc(OC)cc2)Sc2ccccc21 | Cytochrome P450 3A4 (CYP3A4, Homo sapiens, UniProt P08684) | enzyme activity, mechanism-based inhibitor | – | – | kinact | 1.09 h⁻¹
VGNVYVKF | HLA class I histocompatibility antigen, A alpha chain, allele A*26:01 (Homo sapiens, UniProt P04439) | peptide-MHC binding | peptide | – | IC50 | 1060 nM
Oc1ccc(-c2c(Cl)c(Cl)cc(Cl)c2Cl)cc1Cl | – | – | rat liver | 1 µM | sulfonation rate | 11 pmol/min/mg protein
COc1cccc([C@]2(C)CCN(C[C@@H](NC(=O)[C@H]3Cc4ccc(O)cc4CN3)C(C)C)C[C@@H]2C)c1 | delta opioid receptor (human) | antagonist | – | with: DPDPE | Ke | 21.2 ± 5 nM

A few entries again:
Molecule | target or system | test | test system | setting | measurement | result
CO[C@@H](C)Cn1c(=O)n(C)c2cnc3ccc(-c4cncc(C(C)(C)O)c4)cc3c21 | – | – | human cancer patients, CRPC | with: enzalutamide | maximum tolerated dose | 200 mg twice daily
